# Measured values from different studies.
# Every numbered part comes from another study and shows a few of its results, in no order. ± gives the spread as reported.
# UniProt Q9ESK4, sequence (whole entry, looked up): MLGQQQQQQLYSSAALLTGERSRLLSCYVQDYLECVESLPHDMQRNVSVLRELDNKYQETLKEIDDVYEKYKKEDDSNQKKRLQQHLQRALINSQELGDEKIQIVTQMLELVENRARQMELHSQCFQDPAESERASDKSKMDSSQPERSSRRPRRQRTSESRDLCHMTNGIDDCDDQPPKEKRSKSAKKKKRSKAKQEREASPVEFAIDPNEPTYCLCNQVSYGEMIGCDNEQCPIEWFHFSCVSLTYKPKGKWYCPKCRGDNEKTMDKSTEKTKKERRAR

# Study 1
# Read-out: DPPH scavenging
Structure (SMILES),IC50 [µM]
O=C(CSc1nc2ccccc2cc1C=Nn1c(S)nnc1-c1ccccc1)Nc1cccc(Cl)c1,94.5
O=C(CSc1nc2ccccc2cc1C=Nn1c(S)nnc1-c1ccccc1)Nc1ccc(Cl)cc1Cl,124
O=C(CSc1nc2ccccc2cc1C=Nn1c(S)nnc1-c1ccccc1)Nc1ccccc1,107
O=C(CSc1nc2ccccc2cc1C=Nn1c(S)nnc1-c1ccccc1)Nc1ccccc1Cl,106
Cc1cccc(NC(=O)CSc2nc3ccccc3cc2C=Nn2c(S)nnc2-c2ccccc2)c1C,142
COc1ccc(NC(=O)CSc2nc3ccccc3cc2C=Nn2c(S)nnc2-c2ccccc2)cc1,98.9

# Study 2
# Organism: Leishmania major
# Technique: annexin V/PI flow cytometry
# Strain: promastigotes
# Concentration: IC50
Compound,apoptotic cells [%]
CNC(=S)NN=Cc1ccc(O)c(OC)c1,41.5
CNC(=S)NN=Cc1ccc(OC)cc1,52.9
Fc1ccc(C=NNC(=S)Nc2cccnc2)cc1,42.2
CNC(=S)NN=Cc1ccc([N+](=O)[O-])cc1,16.2

# Study 3
# Target: Metabotropic glutamate receptor 2 (GRM2, Homo sapiens, UniProt Q14416)
# UniProt Q14416, sequence (whole entry, looked up): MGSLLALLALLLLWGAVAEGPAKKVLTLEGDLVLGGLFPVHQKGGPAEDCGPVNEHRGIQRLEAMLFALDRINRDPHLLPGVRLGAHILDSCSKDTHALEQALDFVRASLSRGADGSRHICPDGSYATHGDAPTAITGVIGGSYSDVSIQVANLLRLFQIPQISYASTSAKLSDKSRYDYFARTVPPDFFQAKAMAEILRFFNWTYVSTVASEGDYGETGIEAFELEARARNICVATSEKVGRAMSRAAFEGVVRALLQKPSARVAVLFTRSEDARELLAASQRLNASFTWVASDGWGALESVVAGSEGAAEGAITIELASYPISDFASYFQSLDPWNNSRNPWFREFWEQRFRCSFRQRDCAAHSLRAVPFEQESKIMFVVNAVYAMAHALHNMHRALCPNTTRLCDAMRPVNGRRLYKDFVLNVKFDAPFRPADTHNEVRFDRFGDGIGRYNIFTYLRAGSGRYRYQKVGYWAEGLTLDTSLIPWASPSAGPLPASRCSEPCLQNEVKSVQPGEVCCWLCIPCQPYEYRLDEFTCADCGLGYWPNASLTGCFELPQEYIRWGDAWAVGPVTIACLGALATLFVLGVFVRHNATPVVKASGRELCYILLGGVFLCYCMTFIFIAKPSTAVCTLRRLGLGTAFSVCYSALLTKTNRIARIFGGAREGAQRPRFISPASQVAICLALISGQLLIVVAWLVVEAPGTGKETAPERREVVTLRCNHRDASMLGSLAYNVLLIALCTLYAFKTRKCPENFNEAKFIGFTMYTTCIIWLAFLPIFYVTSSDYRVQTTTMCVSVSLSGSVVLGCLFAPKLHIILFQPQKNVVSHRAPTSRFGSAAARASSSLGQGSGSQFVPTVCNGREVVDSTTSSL
# Read-out: GTPγS binding
# Mode: positive allosteric modulator
# With: EC20 glutamate
Structure (SMILES),EC50 [µM]
CCCCn1ccn2c(-c3ccc(Oc4ccc(C)nc4C)c(F)c3)c(C)nc2c1=O,0.029
CCCCn1ccn2c(-c3ccc4c(ccn4-c4cccnc4)c3)c(C)nc2c1=O,0.059
CCCCn1ccn2c(-c3ccc(Oc4ccccc4)cc3)c(C)nc2c1=O,0.015
CCCCn1ccn2c(-c3ccc(N4CCNCC4)c(Cl)c3)c(C)nc2c1=O,0.174
CCCCn1ccn2c(-c3ccc(OCC4CC4)c(Cl)c3)nc(C)c2c1=O,0.327

# Other studies, line by line
Structure (SMILES),target,test,measurement,result
CCCCc1oc2ccccc2c1C(=O)c1cc(I)c(OCCN)c(I)c1,"Inhibitor of growth protein 2, PHD finger (Ing2, Mus musculus, UniProt Q9ESK4)",fluorescence polarization,IC50,97 ± 41 µM
